Experimental data pooled from the literature.
± gives the spread as reported.

CC(C)C[C@H](NC(=O)[C@H](Cc1ccc(O)cc1)NC(=O)[C@@H](CCCNC(=N)N)NC(=O)[C@@H](CO)NC(=O)[C@H](Cc1ccccc1)NC(=O)[C@H](CC1CCCCC1)NC(=O)[C@H](CC(=O)O)NC(=O)CN1CCCN2CCN(CCCN(CC(=O)O)CC2)CC1)C(=O)N[C@@H](Cc1c[nH]c2ccccc12)C(=O)N[C@@H](CO)C(=O)O (single isomer, unassigned)  kon (Urokinase plasminogen activator surface receptor (Homo sapiens, UniProt Q03405); binding, SPR): 600000 M⁻¹ s⁻¹
CSCC[C@H](NC(=O)[C@H](CO)NC(=O)[C@@H](NC(=O)[C@H](CCC(N)=O)NC(=O)[C@@H](CCCNC(=N)N)NC(=O)[C@@H](CCCNC(=N)N)NC(=O)[C@@H](CCCCN)NC(=O)[C@@H](CCCNC(=N)N)NC(C)=O)[C@@H](C)O)C(=O)N[C@H](C(=O)N[C@@H](CC(=O)O)C(=O)N[C@@H](Cc1ccccc1)C(=O)N[C@@H](Cc1ccc(O)cc1)C(=O)N[C@@H](Cc1c[nH]cn1)C(=O)N[C@@H](CO)C(=O)N[C@H](CCCCN)C(=O)N[C@H](CCCNC(=N)N)C(=O)N[C@H](CCCNC(=N)N)C(N)=O)[C@@H](C)O  binding enthalpy ΔH (PCNA (Homo sapiens, UniProt P12004); isothermal titration calorimetry; concentration not given, pH 7.4, 25 °C, 200 mM NaCl, added: p21 peptide): -21.5 ± 0.956 kcal/mol
O=C(O)[C@H]1O[C@@H](O[C@H]2C=Cc3c(cc4ccc5cccc6c7ccccc7c3c4c56)[C@@H]2O)[C@H](O)[C@@H](O)[C@@H]1O  kcat (UGT1A10 (Homo sapiens, UniProt Q9HAW8); glucuronidation, substrate; UGT-expressing HEK293 homogenate; normalized to UGT expression): 0.00267 ± 0.000167 s⁻¹
O=C(Nc1cc(C(F)(F)F)cc(C(F)(F)F)c1)c1cc(Cl)ccc1O  AR variant protein level (Androgen receptor, AR-V7 isoform (AR, Homo sapiens, UniProt P10275); Western blot; CWR22Rv1; 1 µM, 16 h): inhibited
O=C(O)C1OC(OC2C(C(=O)O)OC(OC3C(C(=O)O)OC(OC4C(C(=O)O)OC(O)C(O)C4O)C(O)C3O)C(O)C2O)C(O)C(O)C1O (stereo not drawn)  binding enthalpy (Beta-lactoglobulin (LGB, Bos taurus, UniProt P02754, A134V/G80D); isothermal titration calorimetry; 50 mM KH2PO4; concentration not given, pH 4.00, 37 °C): -4.3 ± 0.167 kcal/mol
COc1cccc(C(=O)N[C@H]2[C@@H](O)[C@@H](CO)O[C@@H](S[C@@H]3O[C@H](CO)[C@H](O)[C@H](NC(=O)c4cccc(OC)c4)[C@H]3OS(=O)(=O)O)[C@@H]2O)c1  ΔH (Galectin-3 (LGALS3, Homo sapiens, UniProt P17931); ITC; Kd fixed from FP): -12.72 ± 0.0956 kcal/mol
O=C1C[C@H](c2nc(-c3ccc(F)c4cn[nH]c34)no2)CCCN1c1ccc(F)cc1 (racemic)  forskolin-stimulated cAMP production (CNR1 (Homo sapiens, UniProt P21554); CNR1-transfected cells; up to 30 µM, added: forskolin): no effect
NCCCC[C@H](NC(=O)[C@H](C/C=C\C[C@H](NC(=O)[C@@H]1CCCN1)C(=O)N[C@@H](CCCCN)C(=O)NCCCN)NC(=O)[C@@H]1CCCN1)C(=O)NCCCN  residence time ((CUG)10 RNA; SPR): 20 s
[3H]C([3H])([3H])c1cnccc1CN1C[C@@H](c2cc(F)c(F)c(F)c2)CC1=O  specific binding ratio (SV2A (Homo sapiens, UniProt Q7L0J3); radioligand binding; frontal cortex P2 fraction; relative to: control over Alzheimer disease): ~1.7 fold
CC(Oc1cc(-c2ccccc2)nc2cnccc12)C(=O)N(C)c1ccccc1 (stereo not drawn)  lipophilic efficiency (Tspo (Rattus norvegicus, UniProt P16257); binding; rat brain homogenate; pKi minus clogD): 5.4 ± 0.3
Oc1c(C(Nc2nccs2)c2ccccc2OCc2ccccc2)ccc2cccnc12 (stereo not drawn)  Hill slope (Genome polyprotein, NS2B-NS3 protease (GP1, West Nile virus, UniProt Q9Q6P4); enzyme activity, inhibitor; 0.1% CHAPS, added: tetrapeptide substrate): 1.19 ± 0.14
Cc1cc(C)c2sc(NC(=O)C3CCN(S(=O)(=O)c4ccc(F)cc4)CC3)nc2c1  OEA/NOPE ratio (Napepld (Mus musculus, UniProt Q8BH82); activator, LC-MS/MS; 10 or 20 µM, 90 min, added: NOPE substrate): increased

For quick reference, copied from above:
CC(Oc1cc(-c2ccccc2)nc2cnccc12)C(=O)N(C)c1ccccc1 (stereo not drawn)  lipophilic efficiency (Tspo (Rattus norvegicus, UniProt P16257); binding; rat brain homogenate; pKi minus clogD): 5.4 ± 0.3
O=C1C[C@H](c2nc(-c3ccc(F)c4cn[nH]c34)no2)CCCN1c1ccc(F)cc1 (racemic)  forskolin-stimulated cAMP production (CNR1 (Homo sapiens, UniProt P21554); CNR1-transfected cells; up to 30 µM, added: forskolin): no effect
